Measurements pooled from the literature.
± gives the spread as reported.

Substance | test | system | conditions | measurement | result
Cc1cc(Nc2ncc(Cl)c(Nc3ccccc3S(=O)(=O)C(C)C)n2)c(OC(C)C)cc1C1CCNCC1 | item: unbound drug | patients, plasma | oral, 750 or 450 mg/day, 23.7 h, arithmetic mean | Css,min | 12 nM
O=c1cc(-c2ccc(O)c(-c3c(O)cc(O)c4c(=O)cc(-c5ccc(O)cc5)oc34)c2)oc2cc(O)cc(O)c12 | UV-vis pH titration | ethanol-water, 0.1 M NaCl | 25 µM, 25 °C, third pKa, o-carbonyl-phenol | pKa | 7.61
Alexa Fluor 647 | – | PBS | 3 µM, 1 h, photostability, added: 150 W xenon lamp | remaining absorbance | 77%
[2H]C([2H])([2H])Oc1cc2c(cc1OC([2H])([2H])[2H])C1CC(=O)C(CC(C)C)CN1CC2 (stereo not drawn) | item: deuterated total (α+β)-HTBZ | healthy human volunteers, plasma | oral, 12 mg single dose, standard meal | dose-normalized AUC(0-t) | 21.7 ng·h/mL
CC(=O)Nc1noc(C)n1 | HPLC-MS | C57BL/6 mouse, male, intestine | oral, 60 mg/kg, 45 min | concentration | 1020 to 8460 ng/g
CC1=C2C[C@H]3[C@@H](CC[C@@H]4C[C@H](NS(C)(=O)=O)CC[C@@]43C)[C@@H]2CC[C@@]2(C1)O[C@@H]1C[C@H](C)CN[C@H]1[C@H]2C | – | patients, plasma | oral, 200 mg single, day -7, cycle 1 | AUC(0-24) | 1830 ng·h/mL
Cc1ccc(-c2cc(C(F)(F)F)nn2-c2ccc(S(N)(=O)=O)cc2)cc1 | equilibrium dialysis | dogs, albumin H1/H1 and H2/H2, plasma | 4 µM, 4 h, 37 °C | plasma protein binding | 98.22 ± 0.3%
CN(C)Cc1cc(OCCC[18F])ccc1Sc1ccccc1N | – | male Sprague-Dawley rats, control, remainder of brain | intravenous, dose not given, 60 min | tissue uptake | 0.45 ± 0.1 %ID/g
C=C(C)[C@@H]1CC[C@]2(NCCN3CCS(=O)(=O)CC3)CC[C@]3(C)[C@H](CC[C@@H]4[C@@]5(C)CC=C(C6=CC[C@@](CF)(C(=O)O)CC6)C(C)(C)[C@@H]5CC[C@]43C)[C@@H]12 | – | healthy human | oral, 100 mg, single ascending dose, geometric mean | t1/2 | 22.8 h
Cc1ncnc2c1c(Cl)cn2[C@@H]1O[C@H](CO)[C@@H](O)[C@H]1O | – | mouse liver microsomes | 0 min, added: NADPH | remaining parent compound | 100%
des-acyl ghrelin (human) | – | mouse, wild type, cortex | intravenous, 10 min | brain/serum ratio | 7.56 µL/g
CC(C)C[C@H](NC(=O)[C@H](CCCNC(=N)N)NC(=S)Nc1ccc(C[C@H]2CN(CC(=O)O)CCN(CC(=O)O)CCN2CC(=O)O)cc1)C(=O)N[C@@H](CC(N)=O)C(=O)N[C@H](C(=O)NCC(=O)NCC(=O)N[C@H](C(=O)N[C@@H](Cc1ccc(O)cc1)C(=O)N[C@@H](Cc1ccccc1)C(=O)N[C@@H](CC(C)C)C(=O)N[C@H](C(=O)N[C@H](C(=O)N[C@@H](CCCNC(=N)N)C(=O)N[C@@H](CCC(N)=O)C(=O)O)[C@@H](C)O)[C@@H](C)O)[C@@H](C)O)C(C)C [fluorine-18 labelled] | radio-HPLC | mouse (HepG2 tumour-bearing), liver | intravenous, 5.55 MBq, 1 h | intact parent radiotracer | 96.06 ± 0.54%
COc1cc2c(cc1OC)CN(CCc1ccc(NC(=O)c3cc(OC)c(OC)cc3NC(=O)c3cnc4ccccc4c3)cc1)CC2 | – | Wistar rats, plasma | intravenous, 3 mg/kg, 3 h | plasma concentration | 266 ng/mL
CC(=O)N[C@@H](CCCNC(=N)N)C(=O)N[C@@H](C)C(=O)N[C@@H](CC(=O)O)C(=O)N[C@@H](C)C(=O)N[C@@H](CCCNC(=N)N)C(=O)N[C@@H](C)C(=O)N[C@@H](CC(=O)O)C(=O)N[C@@H](C)C(=O)N[C@@H](CCCNC(=N)N)C(=O)N[C@@H](C)C(=O)N[C@@H](CC(=O)O)C(=O)N[C@@H](C)C(=O)N[C@@H](CCCNC(=N)N)C(=O)N[C@@H](C)C(=O)N[C@@H](CC(=O)O)C(=O)N[C@@H](C)C(N)=O | rotational rheometry | 2% w/v aqueous solution | shear rate range 1-1000 s^-1 | viscosity | 1820 ± 57.6 Pa·s
O=C(c1nc2n(n1)[C@H](c1ccccc1)C[C@@H]2F)C1CC1 | – | human, plasma | oral, 5 mg, 24 h, single dose, fasted, healthy volunteers | concentration | 13.5 ng/mL
Oc1ccc(/C=C/c2ccccc2)cc1O | – | water | aggregation above range | linear absorbance range | ≥ 50 µM
O=S(=O)(O)Cc1ccccc1Nc1c(Cl)cccc1Cl | – | human liver microsomes | 30 min, added: NADPH | remaining compound | 53 ± 4.3%
CCCCCCCCCCCCCCCCCCOP(=O)([O-])OC1CC[N+](C)(C)CC1 | – | rhesus monkey, male, plasma | oral, 7 mg/kg, single dose | Tmax | 19 h

Substance | test | system | conditions | measurement | result
Cc1nc2c([nH]1)c(=O)n(C)c(=O)n2Cc1ccco1 | enzyme activity, inhibitor | human liver microsomes | 10 µM, 10 min preincubation, added: rosiglitazone 10 µM | inhibition | 18%
COc1cc(C(=O)N2CCC3(CC2)CC(=O)c2c(cnn2C(C)C)C3)cc(-c2ccc(C(=O)O)cc2)n1 | item: AST | human | 15 mg twice daily, 7 days | liver enzyme elevation | 3.5 × ULN
CCOc1c([C@H](C)n2nc(C)c3c(N)ncnc32)cc(Cl)c(F)c1[C@@H]1CNC(=O)C1 | – | healthy fasted humans, plasma | oral, 10 mg | terminal half-life geometric mean | 12.8 h
acyl ghrelin (human) | – | mouse, wild type, hypothalamus | intravenous, 10 min | brain/serum ratio | 6.83 µL/g
CCCC[C@@H]1NC(=O)[C@@H](NC(=O)[C@H](CCC(=O)O)NC(=O)CNC(=O)CN2CCN(CC(=O)O)CCN(CC(=O)O)CCN(CC(=O)O)CC2)CCCCNC(=O)C[C@@H](C(N)=O)NC(=O)[C@H](C(C)C)NC(=O)[C@@H]2CCCN2C(=O)[C@H](CCCNC(=N)N)NC(=O)CNC(=O)[C@H](Cc2c[nH]c3ccccc23)NC(=O)[C@H](CCCNC(=N)N)NC(=O)[C@@H](Cc2ccccc2)NC(=O)[C@H](Cc2c[nH]cn2)NC(=O)[C@H](CCC(=O)O)NC1=O [indium-111 labelled] | – | normal C57 mice, liver | intravenous, 0.037 MBq, 2 h | tissue uptake | 0.41 ± 0.09 %ID/g
CC(C)(CC(=O)N1CCCC1)NCC(=O)N1C[C@@H](F)C[C@H]1C#N | – | Chinese type 2 diabetes patients, plasma | oral, 50 mg once daily, multiple doses | AUC(0-t) at steady state | 747 ng·h/mL
Cc1cc(C)c(C#N)c(SCC(=O)c2ccc(Cl)cc2)n1 | metabolic stability | human, liver microsomes | 0.5 µM, pH 7.4 | microsomal CLint | 620 µL/min/mg
Oc1ccc(-c2nc(-c3ccc(Oc4ccc(C(F)(F)F)cc4)cc3)no2)cc1 | – | ICR mice, plasma | intravenous, 50 mg/kg | initial half-life | 3.5 min
CCCOc1ccc([C@H]2CNC(=O)N2c2ccc3[nH]cnc3c2)cc1 | – | human, elderly, fasted, plasma | oral, 800 mg twice daily, tablet, day 11, 2 to 12 h postdose, geometric mean | effective half-life | 3.22 h
Cc1nc2cccc(OCC(C)(C)C(=O)NC(C)C)c2c(N)c1C(=O)O | – | Sprague-Dawley rat, male, plasma | oral, 10 mg/kg, day 7 | Tmax | 0.5 h
Cn1c(-c2ccc(C(N)=O)cc2F)nnc1C(C)(C)Oc1c(F)cc(Cl)cc1F | – | healthy young Japanese subjects, plasma | oral, 50 mg once daily, day 18, 14 days dosing | Tmax median | 3.02 h
CC(C)(O/N=C(\C(=O)N[C@H]1CN2CC(C(=O)NCCN3C(=O)c4cc(O)c(O)cc4C3=O)=C(C(=O)O)N2C1=O)c1nc(N)sc1Cl)C(=O)O | – | CD-1 mouse, plasma | subcutaneous, 50 mg/kg, 0.167 h | plasma concentration | 48700 ng/mL
Cc1ccnc2c1NC(=O)c1cccnc1N2C1CC1 | – | olive baboon (Papio anubis), non-pregnant, serum | oral, 10 mg/kg, solution, single dose | AUC(0-8 h) | 2710 ± 1550 ng·h/mL
CC(C)=CCC[C@](C)(O[C@@H]1O[C@H](CO)[C@@H](O)[C@H](O)[C@H]1O)[C@H]1CC[C@]2(C)[C@@H]1[C@H](O)C[C@@H]1[C@@]3(C)CC[C@H](O[C@@H]4O[C@H](CO)[C@@H](O)[C@H](O)[C@H]4O[C@@H]4O[C@H](CO)[C@@H](O)[C@H](O)[C@H]4O)C(C)(C)[C@@H]3CC[C@]12C | – | Sprague Dawley rat, male, plasma | oral, 42 mg/kg, pure ginsenoside mixture in water | CL/F | 50 ± 18.3 mL/min/kg
CC(=O)O[C@H]1C(=O)[C@@]2(C)[C@H]([C@H](OC(=O)c3ccccc3)[C@]3(O)C[C@H](OC(=O)[C@H](O)[C@@H](NC(=O)c4ccccc4)c4ccccc4)C(C)=C1C3(C)C)[C@]1(OC(C)=O)CO[C@@H]1C[C@@H]2O | HPLC | Sprague Dawley rat, male, plasma | intravenous, 7 mg/kg | clearance | 20 mL/min/kg
CC(C)C[C@H]1C(=O)N2CCC[C@H]2[C@]2(O)O[C@](NC(=O)[C@@H]3C=C4c5cccc6[nH]c(Br)c(c56)C[C@H]4N(C)C3)(C(C)C)C(=O)N12 | – | male Sprague-Dawley rats, plasma | intravenous, 0.1 mg/kg, added: DAL 1.7 mg/kg plus HAL 0.7 mg/kg | Vss | 0.106 ± 0.01 L/kg
CCCC[C@H](NC(C)=O)C(=O)N[C@H]1CCC(=O)NC[C@@H](C(=O)N[C@@H](Cc2c[nH]c3ccccc23)C(N)=O)NC(=O)[C@H](CCCNC(=N)N)NC(=O)[C@@H](Cc2ccccc2)NC(=O)[C@H](Cc2c[nH]cn2)NC1=O | – | beagle dog, female, plasma | subcutaneous, 40.0 mg/kg daily, day 14 | Tmax | 0.38 h
CN1CC[C@@H](NC(=O)Nc2ccc(C#N)cc2)C[C@@H]1c1nc2ccccc2[nH]1 | – | severe hepatic impairment, plasma | oral, 100 mg single dose, fasted, geometric mean | AUC(0-inf), unbound | 983 ng·h/mL

A few entries again:
Substance | test | system | conditions | measurement | result
[2H]C([2H])([2H])Oc1cc2c(cc1OC([2H])([2H])[2H])C1CC(=O)C(CC(C)C)CN1CC2 (stereo not drawn) | item: deuterated total (α+β)-HTBZ | healthy human volunteers, plasma | oral, 12 mg single dose, standard meal | dose-normalized AUC(0-t) | 21.7 ng·h/mL
CC(=O)Nc1noc(C)n1 | HPLC-MS | C57BL/6 mouse, male, intestine | oral, 60 mg/kg, 45 min | concentration | 1020 to 8460 ng/g
CC1=C2C[C@H]3[C@@H](CC[C@@H]4C[C@H](NS(C)(=O)=O)CC[C@@]43C)[C@@H]2CC[C@@]2(C1)O[C@@H]1C[C@H](C)CN[C@H]1[C@H]2C | – | patients, plasma | oral, 200 mg single, day -7, cycle 1 | AUC(0-24) | 1830 ng·h/mL
